Published values pooled from the literature.
A part holds a random share of what one study measured. “And” joins repeats or separate records; there may be more than shown.
UniProt P00519, sequence (whole entry, looked up): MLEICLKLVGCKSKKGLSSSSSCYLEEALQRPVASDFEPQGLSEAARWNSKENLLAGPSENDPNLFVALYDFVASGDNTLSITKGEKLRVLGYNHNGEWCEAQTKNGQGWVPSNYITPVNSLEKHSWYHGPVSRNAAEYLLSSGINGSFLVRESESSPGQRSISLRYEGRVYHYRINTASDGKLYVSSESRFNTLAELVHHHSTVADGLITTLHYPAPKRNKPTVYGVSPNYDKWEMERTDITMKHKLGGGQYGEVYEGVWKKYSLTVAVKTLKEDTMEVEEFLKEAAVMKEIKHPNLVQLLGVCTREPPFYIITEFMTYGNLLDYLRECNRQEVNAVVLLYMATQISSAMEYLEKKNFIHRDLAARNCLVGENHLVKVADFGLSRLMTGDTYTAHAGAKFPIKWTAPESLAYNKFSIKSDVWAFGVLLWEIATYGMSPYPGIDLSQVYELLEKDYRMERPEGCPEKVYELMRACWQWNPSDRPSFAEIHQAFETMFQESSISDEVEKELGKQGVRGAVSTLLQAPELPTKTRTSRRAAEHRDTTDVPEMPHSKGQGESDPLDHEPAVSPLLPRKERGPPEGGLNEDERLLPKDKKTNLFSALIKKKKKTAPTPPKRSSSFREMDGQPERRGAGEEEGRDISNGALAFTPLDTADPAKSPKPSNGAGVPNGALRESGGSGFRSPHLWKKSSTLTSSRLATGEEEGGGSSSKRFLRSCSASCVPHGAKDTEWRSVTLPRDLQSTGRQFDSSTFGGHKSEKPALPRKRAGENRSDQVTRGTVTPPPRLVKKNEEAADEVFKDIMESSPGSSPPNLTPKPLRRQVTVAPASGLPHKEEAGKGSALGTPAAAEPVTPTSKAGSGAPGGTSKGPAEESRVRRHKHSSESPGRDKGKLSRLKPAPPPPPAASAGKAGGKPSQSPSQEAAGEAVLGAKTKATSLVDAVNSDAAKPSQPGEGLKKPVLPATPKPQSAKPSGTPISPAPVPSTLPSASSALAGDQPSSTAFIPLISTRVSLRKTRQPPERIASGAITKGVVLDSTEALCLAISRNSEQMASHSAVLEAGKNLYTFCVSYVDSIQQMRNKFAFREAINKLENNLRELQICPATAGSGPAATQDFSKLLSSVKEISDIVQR
UniProt Q9P1W9, sequence (whole entry, looked up): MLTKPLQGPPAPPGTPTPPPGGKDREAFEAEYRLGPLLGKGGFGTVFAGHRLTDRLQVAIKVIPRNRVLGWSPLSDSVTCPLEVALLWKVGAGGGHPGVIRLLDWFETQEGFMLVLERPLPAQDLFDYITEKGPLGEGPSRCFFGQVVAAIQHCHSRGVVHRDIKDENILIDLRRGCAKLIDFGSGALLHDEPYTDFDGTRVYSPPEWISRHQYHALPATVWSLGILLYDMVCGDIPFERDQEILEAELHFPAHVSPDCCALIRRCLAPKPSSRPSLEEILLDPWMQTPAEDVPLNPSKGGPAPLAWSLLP
UniProt O75676, sequence (whole entry, looked up): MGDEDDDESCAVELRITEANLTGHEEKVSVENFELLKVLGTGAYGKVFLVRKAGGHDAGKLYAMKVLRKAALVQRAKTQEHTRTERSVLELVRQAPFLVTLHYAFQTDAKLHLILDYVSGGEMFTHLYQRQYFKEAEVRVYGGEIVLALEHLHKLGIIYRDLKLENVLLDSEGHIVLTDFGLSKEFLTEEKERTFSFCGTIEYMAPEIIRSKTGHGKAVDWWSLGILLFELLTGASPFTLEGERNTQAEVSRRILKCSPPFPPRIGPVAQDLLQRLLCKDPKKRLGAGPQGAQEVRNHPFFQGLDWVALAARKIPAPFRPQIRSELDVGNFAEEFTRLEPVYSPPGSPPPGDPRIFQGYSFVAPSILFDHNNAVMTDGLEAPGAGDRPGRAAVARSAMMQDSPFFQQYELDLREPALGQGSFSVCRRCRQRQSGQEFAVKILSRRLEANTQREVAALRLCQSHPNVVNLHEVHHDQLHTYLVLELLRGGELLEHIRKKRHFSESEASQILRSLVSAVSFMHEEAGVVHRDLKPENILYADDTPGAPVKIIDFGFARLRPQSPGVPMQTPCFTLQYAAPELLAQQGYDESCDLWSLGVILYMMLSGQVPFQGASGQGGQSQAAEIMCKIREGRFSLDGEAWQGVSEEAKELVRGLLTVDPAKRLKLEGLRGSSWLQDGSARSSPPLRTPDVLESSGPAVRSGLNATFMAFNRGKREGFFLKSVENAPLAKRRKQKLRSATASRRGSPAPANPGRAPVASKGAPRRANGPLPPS
UniProt Q02750, sequence (whole entry, looked up): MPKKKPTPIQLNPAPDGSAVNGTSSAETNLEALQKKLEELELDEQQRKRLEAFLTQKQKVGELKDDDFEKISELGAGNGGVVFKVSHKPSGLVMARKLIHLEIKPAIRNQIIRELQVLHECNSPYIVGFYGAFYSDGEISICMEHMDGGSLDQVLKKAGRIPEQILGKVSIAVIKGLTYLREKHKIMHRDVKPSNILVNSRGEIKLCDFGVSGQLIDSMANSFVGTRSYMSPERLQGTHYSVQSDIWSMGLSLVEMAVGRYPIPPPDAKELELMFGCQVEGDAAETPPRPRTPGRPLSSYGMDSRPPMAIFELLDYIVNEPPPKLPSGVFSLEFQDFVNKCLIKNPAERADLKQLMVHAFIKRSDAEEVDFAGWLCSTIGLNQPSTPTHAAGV

Series 1
Target: E3 ubiquitin-protein ligase NEDD4, HECT domain (Homo sapiens, UniProt P46934)
Effect on: enzyme activity
Mode: inhibitor
Method: Ub-TR-FRET
Medium: HECT domain
Concentration: 0.1372 µM
Reading: higher = more chain formation
Endpoint: ubiquitin chain formation AUC
Residues (P46934 938-1319, limits assumed): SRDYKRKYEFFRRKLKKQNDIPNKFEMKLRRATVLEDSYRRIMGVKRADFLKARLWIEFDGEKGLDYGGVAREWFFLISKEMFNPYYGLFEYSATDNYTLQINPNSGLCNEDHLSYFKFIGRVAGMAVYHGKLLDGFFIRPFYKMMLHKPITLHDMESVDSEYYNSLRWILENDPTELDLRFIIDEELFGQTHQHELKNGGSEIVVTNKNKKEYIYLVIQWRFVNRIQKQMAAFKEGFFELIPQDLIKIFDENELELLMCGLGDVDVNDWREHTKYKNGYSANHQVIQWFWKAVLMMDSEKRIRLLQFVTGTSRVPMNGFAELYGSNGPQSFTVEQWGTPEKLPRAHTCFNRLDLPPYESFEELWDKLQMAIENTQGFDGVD
SMILES = CNC(=O)/C=C/CNCCCN1c2ccccc2CCc2ccc(Cl)cc21.Cl; result = 132000 a.u. and 133000 a.u.
SMILES = CONC(=O)/C=C/CNCCCCN1c2ccccc2CCc2ccc(Cl)cc21.O=C(O)/C=C\C(=O)O; result = 60200 a.u. and 59100 a.u. and 57200 a.u. and 37500 a.u. and 37800 a.u. and 37000 a.u.
SMILES = CN(C)C/C=C/C(=O)NCCCN1c2ccccc2CCc2ccc(Cl)cc21; result = 130000 a.u. and 133000 a.u. and 129000 a.u.
SMILES = CCOC(=O)/C=C/CNCCCN1c2ccccc2CCc2ccc(Cl)cc21; result = 45600 a.u. and 43800 a.u. and 43500 a.u.
SMILES = CCOC(=O)/C=C/CN(CC)CCCCN1c2ccccc2CCc2ccc(Cl)cc21.O=C(O)/C=C\C(=O)O; result = 89800 a.u. and 90800 a.u. and 87900 a.u. and 96000 a.u. and 98300 a.u. and 93200 a.u.
SMILES = N#C/C=C/CNCCCCN1c2ccccc2CCc2ccc(Cl)cc21.O=C(O)/C=C\C(=O)O; result = 81900 a.u. and 72400 a.u. and 82300 a.u. and 82500 a.u. and 68800 a.u. and 71000 a.u.
SMILES = CCOC(=O)/C=C/CN(CCCCN1c2ccccc2CCc2ccc(Cl)cc21)C(C)C.O=C(O)/C=C\C(=O)O; result = 79400 a.u. and 81700 a.u. and 81100 a.u. and 82100 a.u. and 82700 a.u. and 80300 a.u.
SMILES = CCOC(=O)/C=C/CNCCCCN1c2cc(Cl)ccc2C(=O)N(C)c2ccccc21.O=C(O)/C=C\C(=O)O; result = 89800 a.u. and 88500 a.u. and 88900 a.u.
SMILES = CCOC(=O)/C=C/CNCCCCN1c2cc(Cl)ccc2CCc2cnn(C)c21.O=C(O)/C=C\C(=O)O; result = 51800 a.u. and 55000 a.u. and 55800 a.u. and 54700 a.u. and 55500 a.u. and 53300 a.u.
SMILES = CCOC(=O)/C=C/CNCCCCN1c2ccccc2COc2ccc(Cl)cc21.O=C(O)/C=C\C(=O)O; result = 82600 a.u. and 84700 a.u.
SMILES = CN(C)C(=O)/C=C/CNCCCN1c2ccccc2CCc2ccc(Cl)cc21.Cl; result = 140000 a.u. and 139000 a.u.
SMILES = CNC(=O)/C=C/CNCCCCN1c2ccccc2CCc2ccc(Cl)cc21.Cl; result = 68200 a.u. and 70000 a.u. and 85900 a.u. and 71300 a.u. and 87400 a.u.

Series 2
SMILES: CN(C1COC1)C(C)(C)/C=C(\C#N)C(=O)N1CCC[C@H]1Cn1nc(-c2ccc(Oc3ccccc3)cc2F)c2c(N)ncnc21
Effect on: kinase activity
Endpoint: inhibition
target = Serine/threonine-protein kinase Chk1 (CHEK1, Homo sapiens, UniProt O14757); concentration = 1 µM; result = 5%
target = Tyrosine-protein kinase Fyn (FYN, Homo sapiens, UniProt P06241); concentration = 1 µM; result = 64%
target = Ribosomal protein S6 kinase alpha-4 (RPS6KA4, Homo sapiens, UniProt O75676); concentration = 0.1 µM; result = 5%
target = cAMP-dependent protein kinase catalytic subunit PRKX (PRKX, Homo sapiens, UniProt P51817); concentration = 0.1 µM; result = 5%
target = 5'-AMP-activated protein kinase catalytic subunit alpha-2 (PRKAA2, Homo sapiens, UniProt P54646); concentration = 0.1 µM; result = -7%
target = Dual specificity mitogen-activated protein kinase kinase 1 (MAP2K1, Homo sapiens, UniProt Q02750); concentration = 0.1 µM; result = -1%
target = Ephrin type-B receptor 1 (EPHB1, Homo sapiens, UniProt P54762); concentration = 1 µM; result = -1%
target = Tyrosine-protein kinase Mer (MERTK, Homo sapiens, UniProt Q12866); concentration = 1 µM; result = 2%
target = NT-3 growth factor receptor (NTRK3, Homo sapiens, UniProt Q16288); concentration = 1 µM; result = 3%
target = Serine/threonine-protein kinase pim-2 (PIM2, Homo sapiens, UniProt Q9P1W9); concentration = 1 µM; result = -3%
target = Ephrin type-B receptor 4 (EPHB4, Homo sapiens, UniProt P54760); concentration = 0.1 µM; result = -1%
target = Casein kinase II subunit alpha (CSNK2A1, Homo sapiens, UniProt P68400); concentration = 0.1 µM; result = -8%
target = Protein-tyrosine kinase 6 (PTK6, Homo sapiens, UniProt Q13882); concentration = 1 µM; result = 70%
target = Aurora kinase A (AURKA, Homo sapiens, UniProt O14965); concentration = 0.1 µM; result = 1%
target = Serine/threonine-protein kinase PAK 3 (PAK3, Homo sapiens, UniProt O75914); concentration = 0.1 µM; result = 3%
target = Insulin-like growth factor 1 receptor (IGF1R, Homo sapiens, UniProt P08069); concentration = 0.1 µM; result = 4%
target = Macrophage-stimulating protein receptor (MST1R, Homo sapiens, UniProt Q04912); concentration = 1 µM; result = -3%
target = Tyrosine-protein kinase ABL1 (ABL1, Homo sapiens, UniProt P00519); concentration = 0.1 µM; result = -1%
target = Fibroblast growth factor receptor 1 (FGFR1, Homo sapiens, UniProt P11362); concentration = 1 µM; result = 19%
target = Serine/threonine-protein kinase DCLK2 (DCLK2, Homo sapiens, UniProt Q8N568); concentration = 0.1 µM; result = 2%
target = Ribosomal protein S6 kinase alpha-2 (RPS6KA2, Homo sapiens, UniProt Q15349); concentration = 1 µM; result = 5%

Series 3
Structure (SMILES): NC/C(=C\F)COc1cc(Cn2c(=S)[nH]c(=O)c3[nH]ccc32)ccc1Cl
Target: Myeloperoxidase (MPO, Homo sapiens, UniProt P05164)
UniProt P05164, sequence (whole entry, looked up): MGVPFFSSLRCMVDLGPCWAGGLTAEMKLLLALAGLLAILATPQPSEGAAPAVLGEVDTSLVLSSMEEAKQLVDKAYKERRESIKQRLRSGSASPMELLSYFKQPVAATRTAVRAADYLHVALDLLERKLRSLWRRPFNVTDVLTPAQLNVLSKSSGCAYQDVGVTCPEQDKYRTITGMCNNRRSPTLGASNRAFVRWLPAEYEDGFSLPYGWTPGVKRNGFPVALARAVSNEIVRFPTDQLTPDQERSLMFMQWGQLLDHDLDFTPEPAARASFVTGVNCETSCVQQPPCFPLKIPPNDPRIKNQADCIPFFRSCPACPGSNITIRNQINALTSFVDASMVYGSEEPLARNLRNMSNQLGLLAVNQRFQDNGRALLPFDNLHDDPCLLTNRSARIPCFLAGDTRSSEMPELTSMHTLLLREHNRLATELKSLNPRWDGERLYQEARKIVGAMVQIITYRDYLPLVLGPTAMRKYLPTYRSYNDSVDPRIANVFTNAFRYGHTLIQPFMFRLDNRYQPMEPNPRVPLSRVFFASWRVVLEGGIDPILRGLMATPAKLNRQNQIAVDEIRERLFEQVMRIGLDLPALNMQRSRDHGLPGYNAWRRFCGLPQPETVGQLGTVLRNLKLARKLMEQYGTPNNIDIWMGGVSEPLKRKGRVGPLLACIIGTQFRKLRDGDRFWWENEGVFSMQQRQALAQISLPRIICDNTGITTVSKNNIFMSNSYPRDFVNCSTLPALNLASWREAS
Effect on: enzyme activity
Endpoint: inhibition
concentration = 0.0005 µM; result = -17.1% and 14.9%
concentration = 1.111 µM; result = 99.5%
concentration = 0.0412 µM; result = 88.3% and 89.9%
concentration = 30 µM; result = 100%
mode = inhibitor; method = fluorescence; concentration = 3.333 µM; result = 99%
concentration = 0.3704 µM; result = 97.8%

Series 4
SMILES: C[C@@H]1CN(c2ccc(-c3cc(C(=O)NCCOCCOCCOCCOCCNC(=O)Cn4cc(-c5[nH]cc(C(=O)N[C@@H](CC(N)=O)c6ccc(F)c(Cl)c6)c5-c5ccc(Cl)cc5F)cn4)ccc3F)cc2NC(=O)c2c[nH]c(=O)cc2C(F)(F)F)C[C@H](C)N1C
Effect on: thermal unfolding
Method: differential scanning fluorimetry
Concentration: 5.5 µM
Reading: higher = more unfolded
Endpoint: SYPRO Orange fluorescence
DCAF1: DDB1- and CUL4-associated factor 1 (DCAF1, Homo sapiens, UniProt Q9Y4B6)
UniProt Q9Y4B6, sequence (whole entry, looked up): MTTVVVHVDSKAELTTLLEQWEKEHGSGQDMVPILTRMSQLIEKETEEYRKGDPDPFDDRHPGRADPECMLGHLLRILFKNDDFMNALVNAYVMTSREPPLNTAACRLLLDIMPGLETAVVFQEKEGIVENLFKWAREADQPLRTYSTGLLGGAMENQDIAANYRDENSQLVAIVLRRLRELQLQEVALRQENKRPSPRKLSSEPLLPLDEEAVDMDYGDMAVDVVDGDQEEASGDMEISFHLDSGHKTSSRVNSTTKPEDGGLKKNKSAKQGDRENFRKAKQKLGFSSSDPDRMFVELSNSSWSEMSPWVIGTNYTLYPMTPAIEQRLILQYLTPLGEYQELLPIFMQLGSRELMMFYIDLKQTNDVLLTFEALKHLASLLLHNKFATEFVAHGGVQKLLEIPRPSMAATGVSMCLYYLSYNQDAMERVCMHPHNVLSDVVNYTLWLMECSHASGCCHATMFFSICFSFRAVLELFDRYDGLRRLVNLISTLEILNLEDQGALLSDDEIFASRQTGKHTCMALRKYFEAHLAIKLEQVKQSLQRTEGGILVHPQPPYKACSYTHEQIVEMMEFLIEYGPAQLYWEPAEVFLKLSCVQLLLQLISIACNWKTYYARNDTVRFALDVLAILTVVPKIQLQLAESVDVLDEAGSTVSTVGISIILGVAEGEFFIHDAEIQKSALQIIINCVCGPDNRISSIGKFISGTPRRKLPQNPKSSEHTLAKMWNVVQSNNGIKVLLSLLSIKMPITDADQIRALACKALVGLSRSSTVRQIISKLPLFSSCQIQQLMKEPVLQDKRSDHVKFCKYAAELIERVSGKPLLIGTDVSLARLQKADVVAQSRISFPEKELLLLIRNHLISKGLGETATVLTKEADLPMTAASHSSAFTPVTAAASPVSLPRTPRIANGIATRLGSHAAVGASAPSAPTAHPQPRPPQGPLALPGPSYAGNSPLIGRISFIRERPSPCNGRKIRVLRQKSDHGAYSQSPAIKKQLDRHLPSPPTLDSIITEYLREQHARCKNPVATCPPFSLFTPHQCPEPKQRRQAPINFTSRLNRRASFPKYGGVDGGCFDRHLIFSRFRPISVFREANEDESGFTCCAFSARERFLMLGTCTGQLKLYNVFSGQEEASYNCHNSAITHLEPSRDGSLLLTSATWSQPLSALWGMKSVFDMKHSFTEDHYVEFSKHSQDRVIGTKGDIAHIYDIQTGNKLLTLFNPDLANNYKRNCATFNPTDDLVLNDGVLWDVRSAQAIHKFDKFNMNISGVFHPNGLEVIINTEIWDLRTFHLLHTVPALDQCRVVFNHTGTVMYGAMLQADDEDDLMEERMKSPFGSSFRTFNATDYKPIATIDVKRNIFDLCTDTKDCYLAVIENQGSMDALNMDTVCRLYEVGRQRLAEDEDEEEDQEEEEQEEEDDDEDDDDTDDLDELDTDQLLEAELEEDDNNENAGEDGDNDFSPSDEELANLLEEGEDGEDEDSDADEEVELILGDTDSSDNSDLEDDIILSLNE
WDR5: WD repeat-containing protein 5 (WDR5, Homo sapiens, UniProt P61964)
target = DCAF1; temperature = 78.21 °C; result = 45700 a.u.
target = DCAF1; temperature = 80.01 °C; result = 44200 a.u.
target = DCAF1; temperature = 50 °C; result = 14600 a.u.
target = DCAF1; temperature = 32.4 °C; result = 8240 a.u.
target = WDR5; temperature = 38.2 °C; result = 14400 a.u.
target = DCAF1; temperature = 84.01 °C; result = 40800 a.u.
target = WDR5; temperature = 70.81 °C; result = 7150 a.u.
target = DCAF1; temperature = 46.2 °C; result = 12800 a.u.
target = WDR5; temperature = 81.01 °C; result = 26600 a.u.
target = DCAF1; temperature = 65.01 °C; result = 55900 a.u.
target = WDR5; temperature = 67.81 °C; result = 6940 a.u.

For quick reference, copied from above (series 2):
target = Ephrin type-B receptor 1 (EPHB1, Homo sapiens, UniProt P54762); concentration = 1 µM; result = -1%
target = Tyrosine-protein kinase Mer (MERTK, Homo sapiens, UniProt Q12866); concentration = 1 µM; result = 2%
target = NT-3 growth factor receptor (NTRK3, Homo sapiens, UniProt Q16288); concentration = 1 µM; result = 3%
target = Serine/threonine-protein kinase pim-2 (PIM2, Homo sapiens, UniProt Q9P1W9); concentration = 1 µM; result = -3%
target = Ephrin type-B receptor 4 (EPHB4, Homo sapiens, UniProt P54760); concentration = 0.1 µM; result = -1%
target = Casein kinase II subunit alpha (CSNK2A1, Homo sapiens, UniProt P68400); concentration = 0.1 µM; result = -8%
target = Protein-tyrosine kinase 6 (PTK6, Homo sapiens, UniProt Q13882); concentration = 1 µM; result = 70%
target = Aurora kinase A (AURKA, Homo sapiens, UniProt O14965); concentration = 0.1 µM; result = 1%
